{"data": "Measured values gathered from unrelated publications", "note": "Each numbered part is a random draw from the data of one study; scales do not carry over between parts. Changes are numbered by the printed parent chain."}
{"data": "Sample 1", "target": "CCNE1, cyclin fold, Cln2 fusion (human)", "technique": "yeast growth competition, sequencing", "sample": "yeast", "setting": "strong parent motif", "relative to": "not given", "reading": "higher = stronger binding", "parent": "RBL1 docking peptide (human); GSAKRRLFGEDPP; partner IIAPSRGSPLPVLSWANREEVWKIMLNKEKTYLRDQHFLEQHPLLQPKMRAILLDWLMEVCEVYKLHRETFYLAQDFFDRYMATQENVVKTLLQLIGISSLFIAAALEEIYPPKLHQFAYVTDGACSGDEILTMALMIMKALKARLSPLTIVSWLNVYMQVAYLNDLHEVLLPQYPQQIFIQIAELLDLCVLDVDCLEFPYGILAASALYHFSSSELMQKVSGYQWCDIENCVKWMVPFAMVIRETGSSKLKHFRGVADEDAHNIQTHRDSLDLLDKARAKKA"}
{"Variant": "A3D", "normalised enrichment score": 0.435}
{"Variant": "P12N", "normalised enrichment score": 5.87}
{"Variant": "R6N", "normalised enrichment score": 2.96}
{"Variant": "G1Y", "normalised enrichment score": 7.37}
{"Variant": "D11I", "normalised enrichment score": 4.5}
{"Variant": "S2Q", "normalised enrichment score": 5.93}
{"Variant": "K4N", "normalised enrichment score": 1.81}
{"Variant": "E10Q", "normalised enrichment score": 3.72}
{"Variant": "R6D", "normalised enrichment score": -0.0277}
{"data": "Sample 2", "target": "ABI1, truncated, D143A, DHFR fusion (Arabidopsis thaliana)", "technique": "DHFR PCA, deep sequencing", "sample": "yeast", "setting": "methotrexate growth selection, single substitutions", "together with": "(+)-ABA 17 µM", "relative to": "wild-type fitted maximum", "reading": "higher = stronger binding", "parent": "PYL1, truncated, DHFR fusion (Arabidopsis thaliana); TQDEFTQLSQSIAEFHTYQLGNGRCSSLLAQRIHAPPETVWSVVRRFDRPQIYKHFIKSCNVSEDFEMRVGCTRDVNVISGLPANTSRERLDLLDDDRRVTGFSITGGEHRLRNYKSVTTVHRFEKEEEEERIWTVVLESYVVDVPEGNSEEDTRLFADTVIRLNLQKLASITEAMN; partner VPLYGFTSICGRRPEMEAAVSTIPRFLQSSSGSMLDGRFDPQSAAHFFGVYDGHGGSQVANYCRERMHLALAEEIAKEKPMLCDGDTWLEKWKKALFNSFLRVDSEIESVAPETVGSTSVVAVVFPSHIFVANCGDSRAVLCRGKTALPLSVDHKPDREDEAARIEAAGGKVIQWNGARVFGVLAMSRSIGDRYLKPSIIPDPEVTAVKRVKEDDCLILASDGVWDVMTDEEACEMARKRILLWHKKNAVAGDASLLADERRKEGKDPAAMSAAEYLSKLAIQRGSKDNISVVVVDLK"}
{"Variant": "L94M", "relative binding score [%]": 74.3}
{"Variant": "V145M", "relative binding score [%]": 41.1}
{"Variant": "Q7S", "relative binding score [%]": 83.5}
{"Variant": "V143A", "relative binding score [%]": 34.5}
{"Variant": "G23H", "relative binding score [%]": 74}
{"Variant": "Q10E", "relative binding score [%]": 87.3}
{"Variant": "S26P", "relative binding score [%]": 0.673}
{"data": "Sample 3", "target": "Interferon regulatory factor 5, full length, phosphomimetic (IRF5, Homo sapiens, UniProt Q13568-2, residues 1-514, S451D/S453D/S456D/S462D)", "technique": "protein-binding microarray", "form": "double-stranded DNA, one strand shown", "sample": "in vitro", "tested at": "940 nM top", "setting": "60-bp whole probe", "together with": "salmon DNA 0.4 mg/ml", "relative to": "random background probes", "reading": "higher = stronger binding", "constant ends, left off below": "GCCTAGCAC … GTCTTGATTCGCTTGACGCTGCTG"}
{"Sequence": "TTAGGTCACCTTTTCCTTTAGTGCTAG", "fitted relative affinity [z-score]": 0.344}
{"Sequence": "TTAGTTATCCTTTTCCTTTAGTGCTAG", "fitted relative affinity [z-score]": 1.42}
{"Sequence": "GACGAACTGAGACTGAAGACGTGCTAG", "fitted relative affinity [z-score]": -0.102}
{"Sequence": "TTTGGTTTCCTTTCCCTTTAGTGCTAG", "fitted relative affinity [z-score]": 3.96}
{"Sequence": "CTAGGTATCCTTTTCCTTTAGTGCTAG", "fitted relative affinity [z-score]": 0.479}
{"Sequence": "GACGGTATCGTTTTCCTGACGTGCTAG", "fitted relative affinity [z-score]": 4.54}
{"Sequence": "AACCTTATTAAGATTGTGCAAGTGCTA", "fitted relative affinity [z-score]": -0.495}
{"Sequence": "GACGGTTTCGGGTTTCGAGACGTGCTA", "fitted relative affinity [z-score]": 9.01}
{"Sequence": "TCACCTTTCAATCCTAGACTGTGCTAG", "fitted relative affinity [z-score]": 1.23}
{"Sequence": "TCATTTTCATTTTCTGAAACTGTGCTA", "fitted relative affinity [z-score]": 1.56}
{"data": "Other studies, line by line"}
{"Substance": "PhoQ, residues 284 288 289 292 302 303 SLGVVW", "target": "PhoP, residues 12 14 15 18 19 HLGGL (Escherichia coli, UniProt P23836)", "test": "Sort-seq, refers to: YFP reporter", "system": "E. coli", "setting": "PhoQ-PhoP variant library, together with: 10 µM Mg2+", "scale": "relative to: high Mg2+ state, higher = stronger signaling", "measurement": "fold induction", "value": 18.3}
